Measurements of several laboratories.
Lines come from different studies, so protocols differ. Numbers after ± are the reported error.
GLP1R: Glucagon-like peptide 1 receptor (GLP1R, Homo sapiens, UniProt P43220)
DCN1-like protein 1: DCN1-like protein 1 (Homo sapiens, UniProt Q96GG9)
UniProt Q96GG9, sequence (whole entry, looked up): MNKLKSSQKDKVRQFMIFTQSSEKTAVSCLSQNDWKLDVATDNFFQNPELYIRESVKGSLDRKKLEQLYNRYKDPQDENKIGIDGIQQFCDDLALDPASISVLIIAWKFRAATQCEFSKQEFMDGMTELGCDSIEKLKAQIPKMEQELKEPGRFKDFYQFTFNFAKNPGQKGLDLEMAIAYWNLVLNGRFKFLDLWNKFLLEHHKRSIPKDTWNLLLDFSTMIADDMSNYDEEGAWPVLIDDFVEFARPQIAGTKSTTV
UniProt P49662, sequence (whole entry, looked up): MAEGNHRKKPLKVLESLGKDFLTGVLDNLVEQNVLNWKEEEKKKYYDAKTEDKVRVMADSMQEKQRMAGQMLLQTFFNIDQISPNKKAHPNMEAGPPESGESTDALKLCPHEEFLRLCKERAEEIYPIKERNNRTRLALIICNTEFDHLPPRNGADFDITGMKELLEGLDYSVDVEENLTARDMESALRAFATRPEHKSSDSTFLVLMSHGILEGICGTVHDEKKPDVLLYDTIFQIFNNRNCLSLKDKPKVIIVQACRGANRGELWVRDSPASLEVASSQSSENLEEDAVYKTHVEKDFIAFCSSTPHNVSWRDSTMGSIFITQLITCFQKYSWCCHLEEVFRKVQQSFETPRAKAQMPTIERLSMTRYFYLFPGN
UniProt O15075, sequence (whole entry, looked up): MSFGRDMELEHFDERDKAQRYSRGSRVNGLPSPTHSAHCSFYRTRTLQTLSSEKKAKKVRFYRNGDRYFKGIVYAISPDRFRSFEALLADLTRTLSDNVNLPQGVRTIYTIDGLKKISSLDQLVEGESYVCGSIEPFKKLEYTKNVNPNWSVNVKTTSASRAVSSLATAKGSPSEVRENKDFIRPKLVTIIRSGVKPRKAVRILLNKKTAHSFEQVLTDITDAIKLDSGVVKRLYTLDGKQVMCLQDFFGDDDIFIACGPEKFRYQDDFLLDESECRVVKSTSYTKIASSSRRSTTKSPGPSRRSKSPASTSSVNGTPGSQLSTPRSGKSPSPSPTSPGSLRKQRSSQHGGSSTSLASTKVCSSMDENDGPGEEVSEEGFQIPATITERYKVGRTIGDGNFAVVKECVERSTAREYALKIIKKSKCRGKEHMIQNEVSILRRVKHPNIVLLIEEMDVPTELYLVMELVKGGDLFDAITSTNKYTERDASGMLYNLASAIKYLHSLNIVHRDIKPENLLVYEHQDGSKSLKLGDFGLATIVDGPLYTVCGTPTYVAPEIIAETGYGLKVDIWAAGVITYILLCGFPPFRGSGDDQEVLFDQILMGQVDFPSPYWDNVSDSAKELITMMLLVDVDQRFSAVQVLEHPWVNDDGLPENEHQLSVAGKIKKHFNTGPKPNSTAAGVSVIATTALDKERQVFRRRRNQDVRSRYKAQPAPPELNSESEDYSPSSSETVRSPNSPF
UniProt Q8NET8, sequence (whole entry, unmodified, looked up): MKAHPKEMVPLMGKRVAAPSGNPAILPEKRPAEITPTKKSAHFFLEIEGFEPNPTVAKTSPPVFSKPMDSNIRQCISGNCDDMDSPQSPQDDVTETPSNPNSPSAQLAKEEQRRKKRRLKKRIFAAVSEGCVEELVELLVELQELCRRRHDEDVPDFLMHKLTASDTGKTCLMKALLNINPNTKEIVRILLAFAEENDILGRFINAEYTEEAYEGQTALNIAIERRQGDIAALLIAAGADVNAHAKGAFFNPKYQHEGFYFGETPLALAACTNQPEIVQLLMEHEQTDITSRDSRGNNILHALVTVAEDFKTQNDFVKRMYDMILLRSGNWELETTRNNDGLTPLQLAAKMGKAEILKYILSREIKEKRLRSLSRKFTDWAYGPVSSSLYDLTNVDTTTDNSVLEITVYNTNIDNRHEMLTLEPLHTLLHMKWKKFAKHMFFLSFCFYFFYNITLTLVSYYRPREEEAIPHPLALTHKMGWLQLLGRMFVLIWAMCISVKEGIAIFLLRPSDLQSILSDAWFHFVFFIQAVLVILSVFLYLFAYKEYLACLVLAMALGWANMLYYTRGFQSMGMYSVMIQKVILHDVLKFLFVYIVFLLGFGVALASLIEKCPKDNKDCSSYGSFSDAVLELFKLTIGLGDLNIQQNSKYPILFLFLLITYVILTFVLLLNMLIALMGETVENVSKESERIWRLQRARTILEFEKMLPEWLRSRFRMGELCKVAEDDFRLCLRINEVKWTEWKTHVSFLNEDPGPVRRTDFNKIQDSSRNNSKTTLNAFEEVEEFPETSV
UniProt Q9UHM6, sequence (whole entry, looked up): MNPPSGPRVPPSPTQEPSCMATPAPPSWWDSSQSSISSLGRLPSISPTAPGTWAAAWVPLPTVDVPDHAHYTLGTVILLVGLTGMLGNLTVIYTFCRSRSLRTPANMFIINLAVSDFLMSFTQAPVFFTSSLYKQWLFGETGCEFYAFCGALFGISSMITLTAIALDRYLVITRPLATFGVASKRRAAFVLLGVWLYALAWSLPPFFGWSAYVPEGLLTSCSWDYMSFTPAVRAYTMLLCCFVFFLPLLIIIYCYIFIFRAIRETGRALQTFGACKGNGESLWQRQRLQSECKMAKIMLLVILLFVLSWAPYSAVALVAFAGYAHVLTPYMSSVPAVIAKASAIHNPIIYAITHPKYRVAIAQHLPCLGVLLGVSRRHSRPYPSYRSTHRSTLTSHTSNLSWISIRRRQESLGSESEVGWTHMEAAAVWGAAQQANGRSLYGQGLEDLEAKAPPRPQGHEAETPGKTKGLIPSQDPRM

SMILES | target or system | test | system | conditions | scale | quantity | result
CCCc1cc(O)c2c(c1)OC(C)(C)[C@@H]1CCC(C)=C[C@@H]21 | TRPV3 (Homo sapiens, UniProt Q8NET8, H426A) | calcium uptake, agonist, Fura-2 AM | HEK293S expressing H426A mutant |  |  | EC50 | 1410 ± 90 nM
COc1cc(Nc2ncc(F)c(Nc3ccc4c(n3)NC(=O)C(C)(C)O4)n2)cc(OC)c1OC | Caspase-4 (CASP4, Homo sapiens, UniProt P49662) |  |  |  |  | IC50 | > 10000 nM
[2H]c1c([2H])c([C@]2([2H])CCCN2C(=O)C(C)(C)Oc2ccc3cn[nH]c3c2)c([2H])c([2H])c1C([2H])([2H])[2H] | DCLK1 (Homo sapiens, UniProt O15075) | KINOMEscan |  | 1 µM | relative to: DMSO control | remaining binding | 84%
C[C@H]1CN(c2n[nH]c3nc(N[C@H]4CC[C@H](NS(=O)(=O)CCC(F)(F)F)CC4)ncc23)CCO1 | Filamin-A (Homo sapiens, UniProt P21333) | biochemical |  |  |  | IC50 | ≥ 20000 nM
N=C(N)NCCC[C@@H]1NC(=O)[C@H](CCCCNC(=O)c2ccc(CNC34CNCCNCC(N)(CNCCNC3)CNCCNC4)cc2)NC(=O)[C@@H](Cc2ccc(O)cc2)NC(=O)[C@H](CC(=O)O)NC(=O)CNC1=O [copper-64 labelled] |  | ex vivo biodistribution | male athymic nude mouse, PC-3 tumour, lung | 7.4 MBq, 48 h |  | tissue uptake | 1.14 ± 0.14 %ID/g
CC[C@H](C)[C@H](NC(=O)[C@H](Cc1ccccc1)NC(=O)[C@H](CCC(=O)O)NC(=O)[C@H](CCCNC(=N)N)NC(=O)[C@H](C)NC(=O)[C@H](C)NC(=O)[C@H](CCC(N)=O)NC(=O)[C@H](CCC(=O)O)NC(=O)[C@H](CCC(=O)O)NC(=O)[C@H](CC(C)C)NC(=O)[C@H](Cc1ccc(O)cc1)NC(=O)[C@H](CO)NC(=O)[C@H](CO)NC(=O)[C@H](CCCCNc1c(NCCCCCN(O)C(=O)CCC(=O)NCCCCCN(O)C(=O)CCC(=O)NCCCCCN(O)C(C)=O)c(=O)c1=O)NC(=O)[C@H](CC(=O)O)NC(=O)[C@H](CO)NC(=O)[C@@H](NC(=O)[C@H](Cc1ccccc1)NC(=O)[C@@H](NC(=O)CNC(=O)[C@H](CCC(=O)O)NC(=O)[C@H](C)NC(=O)CCc1cnc[nH]1)[C@@H](C)O)[C@@H](C)O)C(=O)N[C@@H](C)C(=O)N[C@@H](Cc1c[nH]c2ccccc12)C(=O)N[C@@H](CC(C)C)C(=O)N[C@H](C(=O)N[C@@H](CCCNC(=N)N)C(=O)NCC(=O)N[C@@H](CCCNC(=N)N)C(=O)N[C@@H](CCCCNC(=O)COCCOCCNC(=O)COCCOCCNC(=O)CC[C@H](NC(=O)CCCCCCCCCCCCCCCCC(=O)O)C(=O)O)C(=O)NCC(=O)NCC(=O)N[C@@H](CO)C(=O)N[C@@H](CCCCNc1c(NCCCCCN(O)C(=O)CCC(=O)NCCCCCN(O)C(=O)CCC(=O)NCCCCCN(O)C(C)=O)c(=O)c1=O)C(=O)O)C(C)C | GLP1R | cAMP reporter gene, agonist, CRE luciferase | BHK | with Zr, 1% HSA |  | EC50 | 0.54 nM
Cc1cc([C@H]2c3c(C)nn(-c4ccccc4)c3NC(=O)[C@H]2NC(=O)c2cccc(C(F)(F)F)c2)cs1 | DCN1-like protein 1 |  |  |  |  | IC50 | > 15000 nM
CC[C@H](C)[C@H](NC(=O)[C@H](Cc1ccccc1)NC(=O)[C@H](CCC(=O)O)NC(=O)[C@H](CCCNC(=N)N)NC(=O)[C@H](C)NC(=O)[C@H](C)NC(=O)[C@H](CCC(N)=O)NC(=O)[C@H](CCC(=O)O)NC(=O)[C@H](CCC(=O)O)NC(=O)[C@H](CC(C)C)NC(=O)[C@H](Cc1ccc(O)cc1)NC(=O)[C@H](CO)NC(=O)[C@H](CO)NC(=O)[C@@H](NC(=O)[C@H](CC(=O)O)NC(=O)[C@H](CO)NC(=O)[C@@H](NC(=O)[C@H](Cc1ccccc1)NC(=O)[C@@H](NC(=O)CNC(=O)[C@H](CCC(=O)O)NC(=O)[C@H](C)NC(=O)CCc1cnc[nH]1)[C@@H](C)O)[C@@H](C)O)C(C)C)C(=O)N[C@@H](C)C(=O)N[C@@H](Cc1c[nH]c2ccccc12)C(=O)N[C@@H](CC(C)C)C(=O)N[C@H](C(=O)N[C@@H](CCCNC(=N)N)C(=O)NCC(=O)N[C@@H](CCCNC(=N)N)C(=O)N[C@@H](CCCCNC(=O)COCCOCCNC(=O)COCCOCCNC(=O)CC[C@H](NC(=O)CCCCCCCCCCCCCCCCC(=O)O)C(=O)O)C(=O)NCC(=O)NCC(=O)N[C@@H](CO)C(=O)N[C@@H](CCSC)C(=O)N[C@H](C(=O)N[C@@H](CCCCNc1c(NCCCCCN(O)C(=O)CCC(=O)NCCCCCN(O)C(=O)CCC(=O)NCCCCCN(O)C(C)=O)c(=O)c1=O)C(=O)O)C(C)C)C(C)C | GLP1R | cAMP reporter gene, agonist, CRE luciferase | BHK | with Zr, 1% HSA |  | EC50 | 0.1 nM
CCN1C(=O)[C@@H](NC(=O)C(C)(C)C)[C@@H](c2ccc(F)cc2)c2c(C)nn(-c3ccccc3)c21 | DCN1-like protein 1 |  |  |  |  | IC50 | > 15000 nM
COc1ccc(S(=O)(=O)N2CCCCC2)cc1C | Melanopsin (OPN4, Homo sapiens, UniProt Q9UHM6) | calcium release, antagonist | CHO cells expressing OPN4 |  |  | Kb | 110 nM
Cc1nn(-c2ccccc2)c2c1[C@H](c1ccsc1C)[C@H](NC(=O)c1cccc(C(F)(F)F)c1)C(=O)N2 | DCN1-like protein 1 |  |  |  |  | IC50 | > 15000 nM
CC[C@H](C)[C@H](NC(=O)[C@H](Cc1ccccc1)NC(=O)[C@H](CCC(=O)O)NC(=O)[C@H](CCCNC(=N)N)NC(=O)[C@H](C)NC(=O)[C@H](C)NC(=O)[C@H](CCC(N)=O)NC(=O)[C@H](CCCCNc1c(NCCCCCN(O)C(=O)CCC(=O)NCCCCCN(O)C(=O)CCC(=O)NCCCCCN(O)C(C)=O)c(=O)c1=O)NC(=O)[C@H](CCC(=O)O)NC(=O)[C@H](CC(C)C)NC(=O)[C@H](Cc1ccc(O)cc1)NC(=O)[C@H](CO)NC(=O)[C@H](CO)NC(=O)[C@@H](NC(=O)[C@H](CC(=O)O)NC(=O)[C@H](CO)NC(=O)[C@@H](NC(=O)[C@H](Cc1ccccc1)NC(=O)[C@@H](NC(=O)CNC(=O)[C@H](CCC(=O)O)NC(=O)[C@H](C)NC(=O)CCc1cnc[nH]1)[C@@H](C)O)[C@@H](C)O)C(C)C)C(=O)N[C@@H](C)C(=O)N[C@@H](Cc1c[nH]c2ccccc12)C(=O)N[C@@H](CC(C)C)C(=O)N[C@H](C(=O)N[C@@H](CCCNC(=N)N)C(=O)NCC(=O)N[C@@H](CCCNC(=N)N)C(=O)N[C@@H](CCCCNC(=O)COCCOCCNC(=O)COCCOCCNC(=O)CC[C@H](NC(=O)CCCCCCCCCCCCCCCCC(=O)O)C(=O)O)C(=O)NCC(=O)NCC(=O)N[C@@H](CO)C(=O)N[C@@H](CCCCNc1c(NCCCCCN(O)C(=O)CCC(=O)NCCCCCN(O)C(=O)CCC(=O)NCCCCCN(O)C(C)=O)c(=O)c1=O)C(=O)O)C(C)C | GLP1R | cAMP reporter gene, agonist, CRE luciferase | BHK | with Zr, 0% HSA |  | EC50 | 0.0076 nM

Some of these lines once more:
SMILES | target or system | test | system | conditions | scale | quantity | result
N=C(N)NCCC[C@@H]1NC(=O)[C@H](CCCCNC(=O)c2ccc(CNC34CNCCNCC(N)(CNCCNC3)CNCCNC4)cc2)NC(=O)[C@@H](Cc2ccc(O)cc2)NC(=O)[C@H](CC(=O)O)NC(=O)CNC1=O [copper-64 labelled] |  | ex vivo biodistribution | male athymic nude mouse, PC-3 tumour, lung | 7.4 MBq, 48 h |  | tissue uptake | 1.14 ± 0.14 %ID/g
